# Experimental data from different studies.
# Lines come from different studies, so protocols differ. ± gives the spread as reported.
SMILES,assay,system,conditions,how to read,measurement,value
CCN(CC)CC(=O)Nc1c(C)cccc1C,mitochondrial swelling,BALB/cByJ female mouse liver mitochondria,"30 min, together with: succinate + rotenone",relative to: CaCl2 maximal swelling,EC20,> 800 µM
CCc1cc2c(C(=O)c3ccc(OC)cc3)cc(Br)c(O)c2o1,metabolic stability,"Sprague-Dawley rat, liver microsomes","1 µM, pH 7.4",,microsomal CLint,42.8 µL/min/mg
O=S(=O)(O)Oc1cccc(O)c1O,,"human, fasted baseline, cerebrospinal fluid",,,mean concentration,3.8 nM
COc1cc(Nc2ncc3c(n2)-c2ccc(Cl)cc2C(c2c(F)cccc2OC)=NC3)ccc1C(=O)O,,"human, phase I","oral, 40 mg single dose",,AUC(0-8h),2620 ± 1570 ng·h/mL
Cc1ccc(C(=O)c2cc(O)c(O)c([N+](=O)[O-])c2)cc1,mitochondrial swelling,BALB/cByJ female mouse liver mitochondria,"30 min, together with: succinate + rotenone",relative to: CaCl2 maximal swelling,EC20,> 400 µM
Cc1c(Cl)c(C)[n+]([O-])c(Cl)c1-c1noc(-c2cc(O)c(O)c([N+](=O)[O-])c2)n1,"glucuronidation, substrate",human intestinal microsomes,pH 7.5,,Km,41.9 ± 26.9 µM
O=C(O)c1cc(O)c(O)c(O)c1,mitochondrial swelling,BALB/cByJ female mouse liver mitochondria,"30 min, together with: succinate + rotenone",relative to: CaCl2 maximal swelling,EC20,> 200 µM
CC1=C2C[C@H]3[C@@H](CC[C@@H]4C[C@H](NS(C)(=O)=O)CC[C@@]43C)[C@@H]2CC[C@@]2(C1)O[C@@H]1C[C@H](C)CN[C@H]1[C@H]2C,,"patients, plasma","oral, 60 mg daily, day 22, cycle 1",,AUC(0-24),2100 ng·h/mL
[2H]C([2H])([2H])Oc1cc2c(cc1OC([2H])([2H])[2H])C1CC(=O)C(CC(C)C)CN1CC2 (stereo not shown),measured: deuterated β-HTBZ,"healthy human volunteers, plasma","oral, 18 mg single dose, standard meal",,dose-normalized AUC(0-t),5.2 ng·h/mL
CS(=O)(=O)n1cc2c(n1)CN([C@H]1CO[C@H](c3cc(F)ccc3F)[C@@H](N)C1)C2,,"healthy male human, plasma","oral, 12.5 mg single, fasted, geometric mean",,concentration at 168 h,10.8 nM
C[C@@H](O)[C@H]1C(=O)N2C(C(=O)O)=C(S[C@@H]3CN[C@H](C(=O)N(C)C)C3)[C@H](C)[C@H]12,"microdialysis, noncompartmental","pig (Danish Landrace), subcutaneous adipose tissue","iv infusion, 1000 mg over 10 min, together with: vancomycin co-administered",,AUC(0-last),31200 ng·h/mL
Cn1c(-c2ccc(C(N)=O)cc2F)nnc1C(C)(C)Oc1c(F)cc(Cl)cc1F,,"healthy young Japanese subjects, plasma","oral, 10 mg once daily, day 18, 14 days dosing",,AUC(0-tau) range,1010 to 3310 ng·h/mL
COc1cc2ncnc(Nc3ccc(F)c(Cl)c3)c2cc1OCCCN1CCOCC1,,"ICR mice, male, brain over plasma","intravenous, 5 mg/kg, cassette dosing",relative to: AUC brain over AUC plasma,tissue/plasma ratio,0.9
COC(=O)C[C@](O)(CCCC(C)(C)O)C(=O)O[C@@H]1C(OC)=C[C@]23CCCN2CCc2cc4c(cc2[C@H]13)OCO4,,"CD1 mouse, bone marrow","subcutaneous, 1 mg/kg, 24 h, below quantification limit 1.00 ng/mL",,tissue concentration,not detected
CCN1CCN(c2ccc(Nc3cc(N(C)C(=O)Nc4c(Cl)c(OC)cc(OC)c4Cl)ncn3)cc2)CC1,LC-MS/MS,"juvenile female Crl:WI(Han) rats, plasma","oral gavage, 0.3 mg/kg/day, postnatal day 17",,AUC(0-t),100 ng·h/mL
Cc1cccc(C)c1N(CC(=O)Nc1ccc(-c2ncon2)cc1)C(=O)C1CCS(=O)(=O)CC1,,human,"oral, 200 mg",relative to: parent AUCinf,AUCinf excess of radioactivity,~25%
